Measured values from different studies.
Protocols differ between the studies behind these lines.
Route: intravenous

For `CNC(=O)N[C@]1(C)CCC[C@@]2(C)C3CC[C@@]4(C)C[C@]3(CCC21)CC4=O` (single isomer, unassigned), the clearance was 31 mL/min (male Sprague-Dawley rat, plasma; 2 mg/kg).
`Cn1cc(-c2cc(N3CCCS3(=O)=O)ccc2N[C@H]2CC[C@H](C)CC2)c2cc[nH]c2c1=O` has a clearance of 76.4 mL/min/kg (Sprague-Dawley rat, plasma; 1 mg/kg).
For `COc1ccc2c(c1OCc1ccccc1)C[C@@H](C(=O)O)N(c1nc3ccc(C#N)cc3o1)C2`, the clearance was 1.7 mL/min/kg (male Sprague-Dawley rat, plasma; 1 mg/kg).
`COCCCN1CCc2c(Cc3ccc(Cl)cc3)[nH]c3c(OC(F)F)ccc(c23)C1=O` gave a clearance of 35.2 mL/min/kg (male Sprague-Dawley rat, blood; 2.5 mg/kg).
`CSCOC1C(=O)C2(C)C(OCSC)CC3OCC3(OC(C)=O)C2C(OC(=O)c2ccccc2)C2(O)CC(OC(=O)C(O)C(C=C(C)C)NC(=O)OC(C)(C)C)C(C)=C1C2(C)C` (stereo not shown) has a clearance of 60 mL/min/kg (male Sprague-Dawley rat, plasma; 4 mg/kg).
For `COc1ccc(COc2c(OC)ccc3c2C[C@@H](C(=O)O)N(c2nc4ccc(F)cc4o2)C3)cc1`, the clearance was 5.3 mL/min/kg (male Sprague-Dawley rat, plasma; 1 mg/kg).
For `Cc1cc(/C=C/C#N)cc(C)c1Oc1nc(NC2CCN(Cc3ccc(P(C)(C)=O)cc3)CC2)nc2ccsc12`, the clearance was 52.1 mL/min/kg (male Sprague-Dawley rat, plasma; 2 mg/kg).
`CCCN(c1ccc(C(=O)NCCC(=O)O)cc1)S(=O)(=O)c1cc(C)c(-c2ccc(C(C)(C)C)cc2)c(C)c1` has a clearance of 23.6 mL/min/kg (rat, plasma; 2 mg/kg).
For `N[C@H](COc1ccccc1C(F)(F)F)c1ccccc1`, the clearance was 167 mL/min/kg (rat, plasma; 5 mg/kg).
With `Cc1ccc(OCC(=O)N(Cc2cccs2)c2ccn[nH]2)cc1` the clearance was 56.4 mL/min/kg (female Sprague-Dawley rat, plasma; 1 mg/kg, single dose).
For `O=C(Nc1nc2cc(C(F)(F)F)cc(NC3CC3)n2n1)c1cccnc1`, the clearance was 18.3 mL/min/kg (male Sprague-Dawley rat, plasma; 0.6 mg/kg).
`CC12CC3CC(C)(C1)CC(NC(=O)Nc1ccc(C(=O)N4CCC[C@H](C(N)=O)C4)cc1F)(C3)C2` has a clearance of 20.2 mL/min (Sprague-Dawley rat, plasma; 10 mg/kg).
For `O=c1c(-c2cccnc2)c[nH]n1-c1ccc(CO)cn1`, the clearance was 25 mL/min/kg (rat, blood; 1.8 mg/kg).

Repeated from above:
For `CNC(=O)N[C@]1(C)CCC[C@@]2(C)C3CC[C@@]4(C)C[C@]3(CCC21)CC4=O` (single isomer, unassigned), the clearance was 31 mL/min (male Sprague-Dawley rat, plasma; 2 mg/kg).
`Cn1cc(-c2cc(N3CCCS3(=O)=O)ccc2N[C@H]2CC[C@H](C)CC2)c2cc[nH]c2c1=O` has a clearance of 76.4 mL/min/kg (Sprague-Dawley rat, plasma; 1 mg/kg).
